Published values gathered from unrelated publications.
Every numbered part comes from another study and shows a few of its results, in no order. Substitutions count along the parent as printed.

Block 1 — technique: protein binding microarray; molecule type: double-stranded DNA, one strand shown; medium: in vitro; concentration: not given; relative to: not given; reading: higher = stronger binding; quantity: E-score
Target: Histone acetyltransferase KAT6A, winged helix 1, GST fusion (KAT6A, Homo sapiens, UniProt Q92794, residues 1-85)
Notes: 8-mer, flanks averaged, mean of 2 arrays, mostly near background
Target sequence (chain): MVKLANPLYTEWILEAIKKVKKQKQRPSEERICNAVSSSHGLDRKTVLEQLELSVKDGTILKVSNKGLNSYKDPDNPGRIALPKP
CCATGCGA: -0.00283
CATCACAG: -0.0248
AAGCTTGT: -0.154
AACAACAA: -0.12
AACATATC: 0.104
ACAATAGG: 0.0654
ATCAACAT: -0.18
TATGATGA: -0.197
AGCCGTGG: 0.281
ATTGATGA: -0.088
TGCGGAAA: 0.197
ACGACAGC: -0.118
AGTACGTC: -0.0354
CTATCGAG: -0.119
CACAGCTG: -0.241
ACGGGTAA: 0.32
GGTGTCGA: 0.0475
CAACAATC: -0.192
AGGCCTAG: -0.231
TCCCGGGA: 0.402
CTCATCAC: -0.221
AATAGCGC: 0.24
ATACTGTG: -0.15
GGTGATAC: -0.021
ACATAATA: -0.126

Block 2 — technique: RNA Bind-n-Seq; molecule type: RNA; medium: in vitro; concentration: not given; relative to: input RNA pool; reading: higher = stronger binding; quantity: bound/input enrichment
Target: RING finger protein unkempt homolog, zinc fingers 1-6, GST-SBP tag (UNK, Homo sapiens, UniProt Q9C0B0, residues 30-357)
Notes: RNA with constant flanks, human and mouse sites, ends assumed
All sequences stand within: GGGAGUUCUACAGUCCGACGAUC … CAACAGAGGAUUGAGCAUCA
Residues (chain): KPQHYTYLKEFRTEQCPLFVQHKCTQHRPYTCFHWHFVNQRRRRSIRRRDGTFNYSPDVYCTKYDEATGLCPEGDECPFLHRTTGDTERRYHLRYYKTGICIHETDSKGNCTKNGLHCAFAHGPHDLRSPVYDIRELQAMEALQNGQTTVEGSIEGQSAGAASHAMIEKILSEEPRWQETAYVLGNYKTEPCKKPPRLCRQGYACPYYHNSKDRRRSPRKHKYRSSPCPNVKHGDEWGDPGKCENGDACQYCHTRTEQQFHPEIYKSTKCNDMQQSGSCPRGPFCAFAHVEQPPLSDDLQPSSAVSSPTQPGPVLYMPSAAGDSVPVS
UAUGAGAAGGAUGCACUGAGCAUAAGGAAGGUCGGAGAGGAGGAGUGUGUGGCUCUAGGCAGUUUCUUUUUCUGGAAGUGUUUGCAUGGAGAAAGCUCCACUGAAGAGAUGUGCCACAGC: 0.242 ratio
GUGUGUGUGUGUGUGUGUGUGUGUGUGUGUGUGUGUGUAAGGGAGUACUUUAACCUUGCCAGUUUGUUCCCUCUUUUAUUUUACUGUUUUCUUUUUAGAAACCCACUGUUAAAAUUUAAA: 4.19 ratio
UGUGCCCACUCGAGUGCCUGUAAAGUACAAGCUCCAGAUCAAAAAAGCUUCUAGAUGGAUCCUUUCCAAACUUGGUGUCUUUUCUACAAACUCUGUGCCUCAACAACCAUUUCUAAGUGA: 0.169 ratio
UUUCAGGAUUCUUCUGGCACCAAGGCGAACUCUUCUUGGUACUUCUGACAAUACAGAUCUUUAGGACAAAUUUACCCGCUGAAUGCUUUGGGGCAGGAGGAAAGUAAAACCUUGGAAGCA: 0.237 ratio
GAAGGGGAGCACCAUGAGAAAGCGGUAGAGCUACUGAAAGCAGCCCAAGGGAAGGUUAAAUUAGUCGUACGGUACACACCAAAAGUCUUGGAAGAAAUGGAGUCCCGCUUUGAGAAAAUG: 0.406 ratio
AGAAAGCUACUUGAAGGAAAUUUUGCCAAAGAAGUGAGCCAUGAAAUGGAUGGACUUAUUUUUCAGCCUACUGGAAAAUACAAACCUGGUCGAUGUGAUGAUAUUUUGAAAUGGAAGCCU: 0.242 ratio
GCAGCUGGGCAUUGCAGAGGACCUCAAGGACCGGGCAGCAGAGGGCCGUGCAUCCUCCAAUUUGGGGAUAAUCCACCAGAUGAAAGGCGAUUAUGACACAGCCCUGAAGCUCCACAAGAC: 0.101 ratio
GCCCACAGGUGCGGCCUCCGCCCGGCCGUGGGCUACGAGCUGAACCCCUGGCUGGUGGCGCUGGCGCGGCUGCACGCCUGGAGGGCCGGCUGUGCCGGCAGCGUCUGCUAUCGCCGCAAG: 0.0734 ratio
UGUGUUAAUCCAGAAAUGCAAUAUGUGAAAAUUAAAGAUGUUGCCAGAGGACGAUUACUCAUUUUAAUGGAAGCCAGAUUGUCAGCCCUCUAUAAAUUGGAGAGUGACUAUGAGAUCCUU: 0.15 ratio
GGAGACUUAGAGCUGCAGCCCAUCCGGAGCUACGAAAUCACCAGUCUGGUCCGUGCACUCUUCCGGCUGUCCUCUGCCAUCAACCGUAGAUUUGCAGGCCAGAUGGCAGCUCUGUGCUCC: 0.138 ratio
AUCUCUUUUGGUUUUGAUAAUCUGAAGUGUUUUUUUCUCGUUUUGGCCUUCCAAACUGCAUUUGGUUAGGUGAAUUAAGAAAAAUAUUGCCAUCAAGAAUUACUUGUGUUUUCACAGAGA: 0.172 ratio

Block 3 — technique: aptamer microarray, sandwich; molecule type: DNA with 2'F-ANA; medium: in vitro; concentration: 200 nM; together with: Cy3 exosite-II aptamer, 400 nM; reading: higher = stronger binding; quantity: mean fluorescence intensity; oligonucleotide: GGTTGGTGTGGTTGG
Target: Prothrombin, mature alpha-thrombin (F2, Homo sapiens, UniProt P00734)
Notes: whole 15-mer aptamer, many near background
2'F-ANA at 7 8 11 12 13 14 15: 241 a.u.
2'F-ANA at 1 2 3 4 5 6: 57 a.u.
2'F-ANA at 4 8 9 10 14: 63.4 a.u.
2'F-ANA at 8 11 12 13: 713 a.u.
2'F-ANA at 1 2 3 5 6 7 11 12 13 14: 47.1 a.u.
2'F-ANA at 1 4 5 6 7 10 13 14 15: 45.5 a.u.
2'F-ANA at 3 5 7 8 9 12 13: 222 a.u.
2'F-ANA at 2 3 4 5 10 11 13 14: 45.5 a.u.
2'F-ANA at 1 4 5 7 8 10 12 13: 54.2 a.u.
2'F-ANA at 1 2 5 6 7 12 13 14: 49.1 a.u.
2'F-ANA at 1 2 4 5 6 7 10 11: 51.9 a.u.
2'F-ANA at 2 3 4 7 9 13 14 15: 259 a.u.
2'F-ANA at 1 2 10 12 14 15: 49.3 a.u.
2'F-ANA at 1 4 5 7 8 9 11 14 15: 56.5 a.u.
2'F-ANA at 1 3 4 5 9 11 12 15: 95.7 a.u.
2'F-ANA at 4 5 6 7 8 9 12 15: 134 a.u.
2'F-ANA at 3 6 7 8 9 12 15: 1240 a.u.
2'F-ANA at 6 7 9 12 13 14 15: 170 a.u.
2'F-ANA at 3 6 7 11 14: 526 a.u.

Block 4 — target: CCND2, cyclin fold, Cln2 fusion (human); technique: yeast growth competition, sequencing; medium: yeast; notes: weak parent motif; relative to: not given; reading: higher = stronger binding; quantity: normalised enrichment score
Parent: DOT1L docking peptide (human); SEAKRRIVFTITT
F9A: 0.367
R6A: 0.513
S1A: 0.151
I7A: 0.0374
I11A: 0.179
E2A: 0.649

Block 5 — technique: protein-binding microarray; molecule type: double-stranded DNA, one strand shown; medium: in vitro; concentration: 250 nM; notes: 60-bp whole probe; together with: salmon DNA 0.4 mg/ml; relative to: random background probes; reading: higher = stronger binding; quantity: log fluorescence; all sequences stand within: GCCTAGCAC … GTCTTGATTCGCTTGACGCTGCTG
Target: Interferon regulatory factor 5, full length, phosphomimetic (IRF5, Homo sapiens, UniProt Q13568-2, residues 1-514, K96S/S451D/S453D/S456D/S462D)
TTAGATACCGGGACTGGATTAGTGCTA: 0.00186 z-score
TCATATTTTTTTCCAGAACTGTGCTAG: 0.884 z-score
TGTGGACCTTGGGAGATTTCGTGCTAG: 0.0117 z-score
TTAGGTATACTTATCCTTTAGTGCTAG: 0.0539 z-score
TATATTCTATTCCTTTAACAGTGCTAG: 1.27 z-score
GACGGTCGCCTTATCCTGACGTGCTAG: -0.0736 z-score
TTAGATCTCCGACTGGATTAGTGCTAG: -0.0326 z-score
TTAGAACGGAGTATCGATTAGTGCTAG: 5.7 z-score
TTAGGTTTCGGCTTCGGTTAGTGCTAG: 7.87 z-score
CTCCCTTTCTCTCTGTGACAGTGCTAG: 1.64 z-score
TTAGGTATCCTTATACTTTAGTGCTAG: 0.271 z-score
GACGGTATCCTTCTCCGGACGTGCTAG: 0.199 z-score
TTAGATATCAGTCTCGATTTGTGCTAG: 1.93 z-score
GGCGGACTGCTTATCCTGACGTGCTAG: -0.71 z-score
TTAGGACTGGGTCTCGTTTAGTGCTAG: -0.354 z-score
TTACGTTTCGACTATCGGTTAGTGCTA: 9.92 z-score
TTACGTATCGGGTATCGGTTAGTGCTA: 7.66 z-score
